Assay results from different studies.
Compare with care: the assays were run in different laboratories. ± gives the spread as reported.
GIPR: Gastric inhibitory polypeptide receptor (GIPR, Homo sapiens, UniProt P48546)
Chain of UniProt P48546 (whole entry, looked up): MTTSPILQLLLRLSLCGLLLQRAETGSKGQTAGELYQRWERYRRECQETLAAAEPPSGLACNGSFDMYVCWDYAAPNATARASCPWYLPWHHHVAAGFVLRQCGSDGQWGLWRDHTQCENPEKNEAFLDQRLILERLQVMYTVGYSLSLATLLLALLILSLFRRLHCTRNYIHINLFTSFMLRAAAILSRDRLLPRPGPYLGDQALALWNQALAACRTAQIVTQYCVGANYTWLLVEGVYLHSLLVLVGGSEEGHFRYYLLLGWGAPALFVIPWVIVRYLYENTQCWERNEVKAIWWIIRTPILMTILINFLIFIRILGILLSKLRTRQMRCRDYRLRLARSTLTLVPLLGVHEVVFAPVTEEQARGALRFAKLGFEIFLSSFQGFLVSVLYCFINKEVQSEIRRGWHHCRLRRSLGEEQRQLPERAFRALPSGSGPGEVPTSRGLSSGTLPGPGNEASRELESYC
Chain of UniProt P70180 (whole entry, looked up): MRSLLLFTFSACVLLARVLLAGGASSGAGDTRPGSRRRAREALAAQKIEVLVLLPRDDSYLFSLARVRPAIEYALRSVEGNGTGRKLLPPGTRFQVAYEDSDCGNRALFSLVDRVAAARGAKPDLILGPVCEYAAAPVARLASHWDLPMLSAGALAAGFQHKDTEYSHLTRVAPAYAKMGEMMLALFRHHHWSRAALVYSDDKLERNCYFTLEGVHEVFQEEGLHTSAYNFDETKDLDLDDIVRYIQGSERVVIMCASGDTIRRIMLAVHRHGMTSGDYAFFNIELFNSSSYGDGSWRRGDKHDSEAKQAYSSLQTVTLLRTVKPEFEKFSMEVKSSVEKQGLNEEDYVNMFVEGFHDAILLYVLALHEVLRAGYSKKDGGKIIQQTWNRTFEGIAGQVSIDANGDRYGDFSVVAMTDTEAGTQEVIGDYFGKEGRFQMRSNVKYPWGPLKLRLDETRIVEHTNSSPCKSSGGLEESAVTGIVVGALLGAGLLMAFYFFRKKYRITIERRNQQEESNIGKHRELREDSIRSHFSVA
Chain of UniProt P41143 (whole entry, looked up): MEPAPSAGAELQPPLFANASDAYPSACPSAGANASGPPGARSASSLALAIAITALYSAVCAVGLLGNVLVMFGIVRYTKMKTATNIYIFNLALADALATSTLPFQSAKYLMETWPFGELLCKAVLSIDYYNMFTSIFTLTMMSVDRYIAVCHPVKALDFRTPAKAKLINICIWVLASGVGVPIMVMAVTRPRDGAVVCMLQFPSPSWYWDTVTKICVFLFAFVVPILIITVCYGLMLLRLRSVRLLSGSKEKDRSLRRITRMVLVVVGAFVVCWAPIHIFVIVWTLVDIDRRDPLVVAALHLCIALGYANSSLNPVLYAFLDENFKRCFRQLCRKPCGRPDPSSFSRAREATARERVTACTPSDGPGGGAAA
Chain of UniProt P42338 (whole entry, looked up): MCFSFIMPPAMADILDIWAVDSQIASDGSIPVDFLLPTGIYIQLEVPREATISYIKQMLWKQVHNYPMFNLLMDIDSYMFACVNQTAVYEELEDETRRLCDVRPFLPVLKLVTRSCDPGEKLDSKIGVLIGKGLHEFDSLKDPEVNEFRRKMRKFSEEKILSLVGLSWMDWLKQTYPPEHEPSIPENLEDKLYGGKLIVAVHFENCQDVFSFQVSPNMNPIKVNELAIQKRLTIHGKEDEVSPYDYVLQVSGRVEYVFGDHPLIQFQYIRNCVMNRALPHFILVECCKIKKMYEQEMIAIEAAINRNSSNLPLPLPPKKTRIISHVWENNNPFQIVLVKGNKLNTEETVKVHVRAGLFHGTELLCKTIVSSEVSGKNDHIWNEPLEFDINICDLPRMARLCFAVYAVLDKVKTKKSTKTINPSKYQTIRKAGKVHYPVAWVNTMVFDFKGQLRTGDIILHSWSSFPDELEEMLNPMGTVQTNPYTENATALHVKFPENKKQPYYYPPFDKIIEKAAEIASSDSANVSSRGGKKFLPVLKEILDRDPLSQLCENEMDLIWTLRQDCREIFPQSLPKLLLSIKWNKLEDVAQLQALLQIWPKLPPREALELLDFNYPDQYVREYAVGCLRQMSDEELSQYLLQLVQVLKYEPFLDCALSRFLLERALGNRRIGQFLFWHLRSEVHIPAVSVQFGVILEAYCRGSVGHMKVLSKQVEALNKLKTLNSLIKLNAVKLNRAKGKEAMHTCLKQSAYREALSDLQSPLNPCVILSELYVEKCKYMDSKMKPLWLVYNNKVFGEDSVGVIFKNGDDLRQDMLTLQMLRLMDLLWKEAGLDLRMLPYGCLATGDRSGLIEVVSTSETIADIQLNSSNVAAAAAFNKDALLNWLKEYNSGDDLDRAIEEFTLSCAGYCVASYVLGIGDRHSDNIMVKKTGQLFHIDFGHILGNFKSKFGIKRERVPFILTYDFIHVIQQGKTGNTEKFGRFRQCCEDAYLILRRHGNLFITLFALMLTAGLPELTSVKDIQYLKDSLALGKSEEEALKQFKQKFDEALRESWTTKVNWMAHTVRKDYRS
Chain of UniProt P34975 (whole entry, looked up): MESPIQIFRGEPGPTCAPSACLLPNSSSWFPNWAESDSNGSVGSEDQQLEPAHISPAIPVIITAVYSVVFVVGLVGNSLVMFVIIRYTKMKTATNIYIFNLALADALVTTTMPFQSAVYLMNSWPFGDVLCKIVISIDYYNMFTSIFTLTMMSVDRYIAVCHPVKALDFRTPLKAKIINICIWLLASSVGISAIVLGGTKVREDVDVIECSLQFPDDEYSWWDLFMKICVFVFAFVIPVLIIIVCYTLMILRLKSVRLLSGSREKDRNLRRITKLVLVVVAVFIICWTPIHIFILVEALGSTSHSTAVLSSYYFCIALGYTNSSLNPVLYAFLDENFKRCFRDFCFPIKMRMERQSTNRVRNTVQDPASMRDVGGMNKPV
Chain of UniProt P35372 (whole entry, looked up): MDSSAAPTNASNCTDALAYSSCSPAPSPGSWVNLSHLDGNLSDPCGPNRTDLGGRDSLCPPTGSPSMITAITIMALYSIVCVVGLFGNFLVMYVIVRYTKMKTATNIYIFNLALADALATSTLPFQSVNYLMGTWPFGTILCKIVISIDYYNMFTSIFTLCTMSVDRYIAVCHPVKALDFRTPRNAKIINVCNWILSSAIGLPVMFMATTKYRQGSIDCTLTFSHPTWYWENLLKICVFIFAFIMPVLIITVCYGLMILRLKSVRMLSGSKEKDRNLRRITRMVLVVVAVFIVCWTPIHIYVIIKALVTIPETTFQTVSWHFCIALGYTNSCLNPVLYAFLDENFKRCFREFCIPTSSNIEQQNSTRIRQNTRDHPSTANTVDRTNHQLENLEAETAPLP
Chain of UniProt Q8NER1 (whole entry, looked up): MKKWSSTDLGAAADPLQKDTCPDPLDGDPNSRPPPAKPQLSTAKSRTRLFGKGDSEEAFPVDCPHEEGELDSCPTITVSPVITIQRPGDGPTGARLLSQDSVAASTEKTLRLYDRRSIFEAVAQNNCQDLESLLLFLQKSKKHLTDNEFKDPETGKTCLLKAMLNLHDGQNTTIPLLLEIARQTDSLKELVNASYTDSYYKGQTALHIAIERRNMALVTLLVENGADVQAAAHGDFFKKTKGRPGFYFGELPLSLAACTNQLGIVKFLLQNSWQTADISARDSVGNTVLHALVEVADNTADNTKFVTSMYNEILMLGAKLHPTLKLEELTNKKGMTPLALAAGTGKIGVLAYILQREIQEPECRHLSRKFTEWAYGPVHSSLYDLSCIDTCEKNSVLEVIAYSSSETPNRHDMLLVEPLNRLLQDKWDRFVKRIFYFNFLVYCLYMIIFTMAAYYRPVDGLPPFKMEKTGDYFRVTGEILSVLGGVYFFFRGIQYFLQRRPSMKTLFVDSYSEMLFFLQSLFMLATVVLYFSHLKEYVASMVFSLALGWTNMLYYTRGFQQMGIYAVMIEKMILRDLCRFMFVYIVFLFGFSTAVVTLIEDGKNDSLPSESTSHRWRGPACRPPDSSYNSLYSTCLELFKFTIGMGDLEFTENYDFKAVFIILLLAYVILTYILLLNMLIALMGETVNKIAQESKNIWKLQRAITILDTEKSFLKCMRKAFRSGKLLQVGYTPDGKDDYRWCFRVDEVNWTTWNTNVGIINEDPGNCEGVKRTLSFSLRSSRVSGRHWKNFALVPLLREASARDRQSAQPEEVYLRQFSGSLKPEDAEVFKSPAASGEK

| SMILES | target | assay | system | conditions | how to read | measurement | result |
| --- | --- | --- | --- | --- | --- | --- | --- |
| C[C@H](Nc1ncnc(N)c1C#N)c1c(-c2ccccc2)[nH]c2c(Cl)cccc2c1=O | PIK3CB (Homo sapiens, UniProt P42338) | enzyme activity |  |  | reference: IC50 PIK3CB over PI3Kδ | selectivity ratio | 125 |
| CC[C@H](C)[C@H](NC(=O)[C@H](CCCN)NC(=O)[C@H](CC(=O)O)NC(=O)[C@H](CC(C)C)NC(=O)C(C)(CC(C)C)NC(=O)[C@@H](NC(=O)[C@H](CO)NC(=O)[C@H](Cc1ccc(O)cc1)NC(=O)[C@H](CC(=O)O)NC(=O)[C@H](CO)NC(=O)[C@@H](NC(=O)[C@H](Cc1ccccc1)NC(=O)[C@@H](NC(=O)CNC(=O)[C@H](CCC(=O)O)NC(=O)C(C)(C)NC(=O)[C@@H](N)Cc1ccc(O)cc1)[C@@H](C)O)[C@@H](C)CC)[C@@H](C)CC)C(=O)N[C@@H](Cc1c[nH]cn1)C(=O)N[C@@H](CCC(N)=O)C(=O)NC(C)(C)C(=O)N[C@@H](CC(=O)O)C(=O)N[C@@H](Cc1ccccc1)C(=O)N[C@H](C(=O)N[C@@H](CCC(=O)O)C(=O)N[C@@H](Cc1ccc(O)cc1)C(=O)N[C@@H](CCCCNC(=O)COCCOCCNC(=O)COCCOCCNC(=O)CC[C@H](NC(=O)CCCCCCCCCCCCCCCCCCC(=O)O)C(=O)O)C(=O)N[C@@H](CC(C)C)C(=O)N[C@@H](CCC(=O)O)C(=O)NCC(=O)NCC(=O)N1CCC[C@H]1C(=O)N[C@@H](CO)C(=O)N[C@@H](CO)C(=O)NCC(=O)N[C@@H](C)C(=O)N1CCC[C@H]1C(=O)N1CCC[C@H]1C(=O)N1CCC[C@H]1C(=O)N[C@@H](CO)C(N)=O)C(C)C (stereo partly shown) | GIPR | cAMP accumulation, agonist | HEK293 expressing human GIPR | 0.1% casein, 1.0% HSA | reference: human GIP(1-42)NH2 maximal response | Emax | 101 ± 3% |
| CC[C@H](C)[C@H](N)C(=O)N[C@@H](CC(N)=O)C(=O)N[C@@H](CC(N)=O)C(=O)N[C@H](C(=O)N1C[C@@H](n2cc([C]34[CH]5[CH]6[CH]7[CH]3[Fe]6754389%10[CH]4[CH]3[CH]8[CH]9[CH]4%10)nn2)C[C@H]1C(=O)N[C@@H](Cc1cn(C)c2ccccc12)C(N)=O)[C@@H](C)CC (stereo partly shown) | Envelope glycoprotein gp160, gp120 (env, Human immunodeficiency virus type 1 group M subtype B, UniProt P35961, T253A) | binding, isothermal titration calorimetry | HIV-1 | gp120 T257A |  | −TΔS | 2.7 ± 0.2 kcal/mol |
| CSCC[C@@H]1NC(=O)[C@H](Cc2ccccc2)NC(=O)CNC(=O)[C@H](NC(=O)[C@@H](N)Cc2ccc(O)cc2)CSSC[C@H](C(=O)N[C@@H](Cc2c[nH]c3ccccc23)C(=O)NCc2cc(C(F)(F)F)cc(C(F)(F)F)c2)NC(=O)[C@@H]2CCCN2C1=O | OPRD1 (Homo sapiens, UniProt P41143) | GTPγS binding, agonist, radiometric |  | cell membranes |  | Emax | 110% |
| Cc1cc(O)cc(C)c1C[C@H](N)C(=O)NCC(=O)NCC(=O)N[C@@H](Cc1ccccc1)C(=O)N[C@H](C(=O)NCC(=O)N[C@@H](C)C(=O)N[C@@H](CCCNC(=N)N)C(=O)N[C@@H](CCCCN)C(=O)N[C@@H](CO)C(=O)N[C@@H](C)C(=O)N[C@@H](CCCNC(=N)N)C(=O)N[C@@H](CCCCN)C(N)=O)[C@@H](C)O | OPRM1 (Homo sapiens, UniProt P35372) | calcium mobilization, agonist | CHO cells expressing Gαqi5 chimera |  | reference: basal | Emax | 306 ± 10% |
| NS(=O)(=O)c1ccc(NC(=O)c2ccccc2SSc2ccccc2C(=O)Nc2ccc(S(N)(=O)=O)cc2)cc1 | Gag-Pol polyprotein, integrase residues 50-288 (gag-pol, Human immunodeficiency virus type 1 group M subtype B, UniProt P04585, C1427S) | DNA binding, fluorescence anisotropy | integrase ΔN | compound:IN ratio 3:1, with: 10 mM Mg2+, U5 DNA |  | Hill coefficient | 1.41 |
| CC[C@H](C)[C@H](NC(=O)[C@H](CCCNC(=N)N)NC(=O)[C@H](CCCNC(=N)N)NC(=O)[C@H](CC(C)C)NC(=O)[C@H](Cc1ccccc1)NC(=O)CNC(=O)CNC(=O)[C@@H](N)Cc1ccc(O)cc1)C(=O)N[C@@H](CCCNC(=N)N)C(=O)N1CCC[C@H]1C(=O)N[C@@H](CCCCN)C(=O)N[C@@H](CC(C)C)C(=O)N[C@@H](CCCCN)C(N)=O | Oprk1 (Rattus norvegicus, UniProt P34975) |  |  |  | reference: membrane potential over GTPγS | potency ratio | ~10 |
| CC[C@H](C)[C@H](N)C(=O)N[C@@H](CO)C(=O)N[C@@H](Cc1ccccc1)C(=O)N[C@@H]1CSCc2ccc(cc2)-c2ccc(cc2)CSC[C@@H](C(=O)N[C@@H](CCC(=O)O)C(=O)N[C@@H](CO)C(=O)NCC(=O)N[C@@H](CO)C(N)=O)NC(=O)[C@H](Cc2ccc(O)cc2)NC(=O)[C@H](Cc2ccc(O)cc2)NC(=O)[C@H](CC(=O)O)NC(=O)[C@H](CC(C)C)NC(=O)[C@H](CC(C)C)NC(=O)[C@H](CCC(=O)O)NC1=O | env (Human immunodeficiency virus type 1 group M subtype B, UniProt P35961) | binding, SPR |  |  |  | koff | 0.00553 s⁻¹ |
| CC[C@H](C)[C@@H]1NC(=O)[C@H](CCCNC(=N)N)NC(=O)[C@H](CC(=O)O)NC(=O)[C@H]([C@@H](C)CC)NC(=O)[C@H](CCCNC(=N)N)NC(=O)CNC(=O)CNC(=O)[C@H](Cc2ccccc2)NC(=O)[C@@H](NC(=O)[C@H](CO)NC(=O)[C@H](CO)NC(=O)[C@H](CCCNC(=N)N)NC(=O)CN2CCN(CC(=O)O)CCN(CC(=O)O)CCN(CC(=O)O)CC2)CSSC[C@@H](C(N)=O)NC(=O)[C@H](C)NC(=O)CNC1=O [copper-64 labelled] | Atrial natriuretic peptide receptor 3 (Mus musculus, UniProt P70180) | PET/CT | C57BL/6 mice hind limb ischemia, previously ischemic limb | iv, day 7 after surgery |  | tracer uptake | 1.85 ± 0.19 %ID/g |
| CC(C)C[C@@H]1NC(=O)[C@@H](NC(=O)[C@H](CC(=O)O)NC(=O)[C@H](C)N)CSSC[C@@H]2NC(=O)[C@@H]3CSSC[C@@H](C(=O)N[C@@H](CCCNC(=N)N)C(=O)O)NC(=O)[C@H](CCCNC(=N)N)NC(=O)[C@H](CCC(N)=O)NC(=O)[C@H](CCC(=O)O)NC(=O)[C@@H]4CCCN4C(=O)[C@H](CC(N)=O)NC(=O)[C@H]([C@@H](C)O)NC(=O)CNC(=O)[C@H](CCCNC(=N)N)NC(=O)[C@H](CCCNC(=N)N)NC(=O)[C@H](CO)NC(=O)[C@H](CSSC[C@H](NC(=O)[C@H](CC(C)C)NC(=O)[C@H](CCCCN)NC(=O)[C@H](CC(C)C)NC(=O)[C@H](Cc4c[nH]cn4)NC(=O)[C@H](C)NC1=O)C(=O)N[C@@H](CCCCN)C(=O)N[C@@H](CCCCN)C(=O)N[C@@H](CC(N)=O)C(=O)N[C@@H](CCCCN)C(=O)N[C@@H](CC(=O)O)C(=O)N3)NC(=O)[C@H](CCCCN)NC(=O)[C@H](CCCCN)NC(=O)[C@H](CO)NC2=O | RYR1 (Oryctolagus cuniculus, UniProt P11716) | activator |  | 100 nM, pCa 6 to 4 | reference: control at pCa 5 | maximal [3H]ryanodine binding | ~300% |
| CCCCCCCCCCCCCCCC(=O)N[C@@H](CCC(=O)NCCCC[C@H](NC(=O)[C@H](CO)NC(=O)[C@@H]1CCCN1C(=O)[C@@H]1CCCN1C(=O)[C@@H]1CCCN1C(=O)[C@H](C)NC(=O)CNC(=O)[C@H](CO)NC(=O)[C@H](CO)NC(=O)[C@@H]1CCCN1C(=O)CNC(=O)CNC(=O)[C@H](C)NC(=O)[C@H](CC(C)C)NC(=O)[C@H](CC(C)C)NC(=O)[C@H](Cc1c[nH]c2ccccc12)NC(=O)[C@H](CC(N)=O)NC(=O)[C@@H](NC(=O)[C@H](Cc1ccccc1)NC(=O)[C@H](CCC(=O)O)NC(=O)C(C)(C)NC(=O)[C@H](C)NC(=O)[C@H](C)NC(=O)[C@H](CCC(N)=O)NC(=O)[C@H](CCCCN)NC(=O)[C@H](CC(=O)O)NC(=O)[C@H](CC(C)C)NC(=O)[C@H](Cc1ccc(O)cc1)NC(=O)[C@@H](NC(=O)[C@H](CO)NC(=O)[C@H](Cc1ccc(O)cc1)NC(=O)[C@H](CC(=O)O)NC(=O)[C@H](CO)NC(=O)[C@@H](NC(=O)[C@H](Cc1ccccc1)NC(=O)[C@@H](NC(=O)CNC(=O)[C@H](CCC(=O)O)NC(=O)CSCC(=O)NCCN1C(=O)CSC1=O)[C@@H](C)O)[C@@H](C)O)[C@@H](C)CC)C(C)C)C(N)=O)C(=O)O | GIPR | β-arrestin recruitment, agonist |  |  |  | Emax | < 5% |
| CC[C@H](C)[C@H](NC(=O)[C@@H]1CCCN1C(=O)[C@H](CCC(=O)O)NC(=O)[C@H](CCC(N)=O)NC(=O)[C@H](CCCCN)NC(=O)[C@H](CCC(N)=O)NC(=O)[C@@H]1CCCN1C(=O)[C@@H]1CCCN1C(=O)[C@@H](NC(=O)[C@@H](NC(=O)[C@@H](NC(=O)[C@H](CCC(=O)O)NC(=O)[C@@H](NC(=O)CNC(=O)[C@H](CO)NC(=O)[C@H](CCCNC(=N)N)NC(=O)[C@H](Cc1ccccc1)NC(=O)[C@H](CO)NC(=O)[C@H](CCC(=O)O)NC(=O)[C@H](CCC(=O)O)NC(=O)[C@@H]1CCCN1C(=O)[C@@H]1CCCN1C(=O)[C@H](C)NC(=O)[C@@H](NC(=O)[C@@H]1CCCN1C(=O)[C@H](CCC(=O)O)NC(=O)[C@@H]1CCCN1C(=O)[C@H](CCCNC(=N)N)NC(=O)[C@@H](N)CO)[C@@H](C)O)C(C)C)[C@@H](C)O)[C@@H](C)O)[C@@H](C)O)C(=O)N[C@@H](CC(=O)O)C(=O)N[C@@H](CCCCN)C(=O)N[C@@H](CCC(=O)O)C(=O)N[C@@H](CC(C)C)C(=O)N[C@@H](Cc1ccc(O)cc1)C(=O)N1CCC[C@H]1C(=O)N[C@@H](CC(C)C)C(=O)N[C@H](C(=O)N[C@@H](CO)C(=O)N[C@@H](CC(C)C)C(=O)N[C@@H](CCCNC(=N)N)C(=O)N[C@@H](CO)C(=O)N[C@@H](CC(C)C)C(=O)N[C@@H](Cc1ccccc1)C(=O)NCC(=O)N[C@@H](CC(N)=O)C(=O)N[C@@H](CC(=O)O)C(=O)N1CCC[C@H]1C(=O)N[C@@H](CO)C(=O)N[C@@H](CO)C(=O)N[C@@H](CCC(N)=O)C(=O)O)[C@@H](C)O | IDE (Homo sapiens, UniProt P14735, E111Q) | NMR relaxation dispersion |  | 500 µM, 2 °C |  | bound state lifetime | ~140 µs |
| C[Si](C)(C)C[C@@H](CN)CC(=O)O | TRPV1 (Homo sapiens, UniProt Q8NER1) | ligand displacement, radioligand |  | 75 µM |  | inhibition | 4% |

Some of these lines once more:
| SMILES | target | assay | system | conditions | how to read | measurement | result |
| --- | --- | --- | --- | --- | --- | --- | --- |
| C[C@H](Nc1ncnc(N)c1C#N)c1c(-c2ccccc2)[nH]c2c(Cl)cccc2c1=O | PIK3CB (Homo sapiens, UniProt P42338) | enzyme activity |  |  | reference: IC50 PIK3CB over PI3Kδ | selectivity ratio | 125 |
